{"data": "Experimental data collected from several papers", "note": "Each numbered part is a random draw from the data of one study; scales do not carry over between parts. Changes are numbered by the printed parent chain.", "UniProt Q32MK0, sequence (whole entry, looked up)": "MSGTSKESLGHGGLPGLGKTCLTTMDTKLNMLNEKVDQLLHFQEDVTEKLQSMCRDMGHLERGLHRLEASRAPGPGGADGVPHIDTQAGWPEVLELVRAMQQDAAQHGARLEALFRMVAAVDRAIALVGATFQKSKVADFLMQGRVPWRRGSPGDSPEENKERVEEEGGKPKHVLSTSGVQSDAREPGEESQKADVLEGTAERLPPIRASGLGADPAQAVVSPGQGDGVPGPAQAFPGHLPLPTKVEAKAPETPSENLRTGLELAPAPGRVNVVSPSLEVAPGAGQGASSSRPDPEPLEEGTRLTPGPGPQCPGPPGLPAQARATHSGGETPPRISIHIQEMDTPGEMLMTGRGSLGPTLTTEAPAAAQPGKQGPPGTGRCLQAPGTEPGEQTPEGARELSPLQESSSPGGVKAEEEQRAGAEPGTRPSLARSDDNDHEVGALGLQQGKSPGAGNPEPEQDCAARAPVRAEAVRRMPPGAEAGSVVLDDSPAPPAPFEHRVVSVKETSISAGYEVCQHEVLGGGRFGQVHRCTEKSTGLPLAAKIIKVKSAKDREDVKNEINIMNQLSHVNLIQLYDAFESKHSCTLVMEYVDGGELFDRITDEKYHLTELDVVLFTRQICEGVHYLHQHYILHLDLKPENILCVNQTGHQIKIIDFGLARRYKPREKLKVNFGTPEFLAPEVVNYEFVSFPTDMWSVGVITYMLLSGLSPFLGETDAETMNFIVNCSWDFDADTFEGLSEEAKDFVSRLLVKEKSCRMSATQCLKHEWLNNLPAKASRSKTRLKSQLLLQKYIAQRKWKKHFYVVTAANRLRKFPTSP", "UniProt P42336, sequence (whole entry, unmodified, looked up)": "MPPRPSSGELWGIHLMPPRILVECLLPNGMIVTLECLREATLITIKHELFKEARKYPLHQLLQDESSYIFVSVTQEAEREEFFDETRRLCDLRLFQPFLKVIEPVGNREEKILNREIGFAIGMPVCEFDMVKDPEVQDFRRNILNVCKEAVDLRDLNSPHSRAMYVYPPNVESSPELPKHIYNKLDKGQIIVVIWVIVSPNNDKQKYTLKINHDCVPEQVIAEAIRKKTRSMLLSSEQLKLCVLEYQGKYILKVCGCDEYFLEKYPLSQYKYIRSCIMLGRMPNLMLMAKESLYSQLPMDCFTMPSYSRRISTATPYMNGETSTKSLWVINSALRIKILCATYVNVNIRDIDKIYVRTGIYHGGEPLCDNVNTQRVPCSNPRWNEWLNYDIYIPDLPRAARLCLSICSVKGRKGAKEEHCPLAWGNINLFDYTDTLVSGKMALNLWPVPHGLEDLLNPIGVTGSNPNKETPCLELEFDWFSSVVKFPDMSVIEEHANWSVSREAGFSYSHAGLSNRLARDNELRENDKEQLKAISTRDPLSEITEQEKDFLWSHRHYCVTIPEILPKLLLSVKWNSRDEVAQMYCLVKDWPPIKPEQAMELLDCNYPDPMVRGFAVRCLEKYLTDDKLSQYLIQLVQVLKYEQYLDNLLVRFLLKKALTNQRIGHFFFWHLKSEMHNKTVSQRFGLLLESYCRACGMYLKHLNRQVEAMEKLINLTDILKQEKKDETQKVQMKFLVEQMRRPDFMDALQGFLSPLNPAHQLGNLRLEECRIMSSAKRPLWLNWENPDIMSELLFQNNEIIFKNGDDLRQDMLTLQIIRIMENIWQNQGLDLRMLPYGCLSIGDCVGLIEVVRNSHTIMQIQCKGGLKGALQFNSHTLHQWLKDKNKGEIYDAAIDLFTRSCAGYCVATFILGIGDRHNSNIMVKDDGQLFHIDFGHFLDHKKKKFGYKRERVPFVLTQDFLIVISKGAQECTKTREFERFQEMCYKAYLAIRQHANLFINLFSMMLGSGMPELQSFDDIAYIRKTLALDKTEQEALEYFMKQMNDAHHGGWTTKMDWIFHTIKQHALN", "UniProt P42685, sequence (whole entry, looked up)": "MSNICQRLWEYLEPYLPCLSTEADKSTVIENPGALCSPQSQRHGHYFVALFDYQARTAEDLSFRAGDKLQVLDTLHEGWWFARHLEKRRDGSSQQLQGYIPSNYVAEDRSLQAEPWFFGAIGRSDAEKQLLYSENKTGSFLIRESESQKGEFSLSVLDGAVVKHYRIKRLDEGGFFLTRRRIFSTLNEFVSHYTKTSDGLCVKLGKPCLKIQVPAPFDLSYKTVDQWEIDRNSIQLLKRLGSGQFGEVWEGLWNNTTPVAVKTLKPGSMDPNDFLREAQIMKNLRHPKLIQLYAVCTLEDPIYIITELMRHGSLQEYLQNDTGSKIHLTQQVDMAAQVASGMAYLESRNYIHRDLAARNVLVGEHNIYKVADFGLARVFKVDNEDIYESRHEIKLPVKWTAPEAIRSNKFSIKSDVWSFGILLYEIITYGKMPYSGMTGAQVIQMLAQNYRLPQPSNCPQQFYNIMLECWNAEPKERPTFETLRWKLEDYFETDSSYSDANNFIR", "UniProt O14920, sequence (whole entry, looked up)": "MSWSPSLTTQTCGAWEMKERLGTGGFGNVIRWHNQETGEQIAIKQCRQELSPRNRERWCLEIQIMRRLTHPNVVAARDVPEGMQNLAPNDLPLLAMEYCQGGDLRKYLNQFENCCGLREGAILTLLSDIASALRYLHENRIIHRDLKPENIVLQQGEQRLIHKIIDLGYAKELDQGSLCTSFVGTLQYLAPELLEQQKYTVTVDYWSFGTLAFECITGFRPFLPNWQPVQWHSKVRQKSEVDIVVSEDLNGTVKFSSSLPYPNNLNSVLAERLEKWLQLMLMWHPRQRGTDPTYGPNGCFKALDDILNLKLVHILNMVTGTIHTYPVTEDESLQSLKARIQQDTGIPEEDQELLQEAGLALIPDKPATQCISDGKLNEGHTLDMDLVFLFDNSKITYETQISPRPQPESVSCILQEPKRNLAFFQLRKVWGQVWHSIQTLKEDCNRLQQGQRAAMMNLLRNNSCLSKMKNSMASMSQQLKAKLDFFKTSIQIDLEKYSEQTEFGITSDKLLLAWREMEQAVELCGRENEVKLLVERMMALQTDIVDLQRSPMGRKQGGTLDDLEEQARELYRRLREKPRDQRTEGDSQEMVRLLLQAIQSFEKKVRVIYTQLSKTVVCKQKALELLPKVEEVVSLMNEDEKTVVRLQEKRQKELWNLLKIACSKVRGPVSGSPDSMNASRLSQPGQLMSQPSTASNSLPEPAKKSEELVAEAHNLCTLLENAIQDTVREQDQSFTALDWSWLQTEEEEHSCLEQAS", "UniProt P41743, sequence (whole entry, looked up)": "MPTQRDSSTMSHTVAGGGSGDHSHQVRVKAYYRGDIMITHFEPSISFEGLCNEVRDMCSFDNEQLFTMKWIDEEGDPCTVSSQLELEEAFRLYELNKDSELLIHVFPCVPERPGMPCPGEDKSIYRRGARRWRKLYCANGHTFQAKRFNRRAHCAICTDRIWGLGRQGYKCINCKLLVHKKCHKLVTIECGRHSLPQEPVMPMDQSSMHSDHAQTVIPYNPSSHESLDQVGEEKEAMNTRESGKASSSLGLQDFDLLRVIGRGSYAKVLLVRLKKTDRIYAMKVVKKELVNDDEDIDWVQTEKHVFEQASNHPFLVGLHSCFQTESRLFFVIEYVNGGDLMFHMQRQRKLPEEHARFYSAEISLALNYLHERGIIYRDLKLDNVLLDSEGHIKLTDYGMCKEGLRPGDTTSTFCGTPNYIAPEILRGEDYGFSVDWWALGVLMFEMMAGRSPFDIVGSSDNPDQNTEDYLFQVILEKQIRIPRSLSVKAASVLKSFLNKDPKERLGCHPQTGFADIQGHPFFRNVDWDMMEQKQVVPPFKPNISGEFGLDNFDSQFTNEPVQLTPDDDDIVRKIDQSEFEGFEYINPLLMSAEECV", "UniProt Q86UE8, sequence (whole entry, looked up)": "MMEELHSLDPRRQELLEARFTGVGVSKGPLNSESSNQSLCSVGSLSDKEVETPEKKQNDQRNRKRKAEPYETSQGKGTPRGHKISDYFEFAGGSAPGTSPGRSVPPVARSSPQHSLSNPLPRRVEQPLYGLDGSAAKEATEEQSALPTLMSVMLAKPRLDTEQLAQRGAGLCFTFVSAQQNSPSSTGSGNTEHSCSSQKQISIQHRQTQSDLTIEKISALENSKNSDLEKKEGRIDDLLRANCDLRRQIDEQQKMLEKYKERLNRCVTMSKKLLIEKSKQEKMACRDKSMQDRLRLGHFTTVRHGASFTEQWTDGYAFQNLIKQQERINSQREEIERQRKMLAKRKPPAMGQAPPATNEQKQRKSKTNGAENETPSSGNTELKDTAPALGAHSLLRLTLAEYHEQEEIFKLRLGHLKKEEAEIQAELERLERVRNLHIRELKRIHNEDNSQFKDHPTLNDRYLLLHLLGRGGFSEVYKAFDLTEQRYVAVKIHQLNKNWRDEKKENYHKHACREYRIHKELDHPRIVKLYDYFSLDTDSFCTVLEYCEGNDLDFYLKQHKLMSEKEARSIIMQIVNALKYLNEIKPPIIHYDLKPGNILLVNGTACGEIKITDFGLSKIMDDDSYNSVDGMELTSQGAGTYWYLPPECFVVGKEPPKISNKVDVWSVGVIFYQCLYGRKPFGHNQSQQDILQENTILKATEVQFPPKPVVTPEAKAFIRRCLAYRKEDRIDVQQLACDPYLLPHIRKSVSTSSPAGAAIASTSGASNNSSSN"}
{"data": "Series 1", "Compound": "CC(=O)C1=C(C)N(c2cccc(C(F)(F)F)c2)C(=O)N[C@@H]1c1ccc(C#N)nc1", "read-out": "cell-free assay", "technique": "competition with immobilised ligand", "tested at": "1 µM"}
{"target": "Serine/threonine-protein kinase tousled-like 2 (TLK2, Homo sapiens, UniProt Q86UE8)", "remaining binding [%]": 100}
{"target": "Tyrosine-protein kinase FRK (FRK, Homo sapiens, UniProt P42685)", "remaining binding [%]": 100}
{"target": "Myosin light chain kinase (MYLK3, Homo sapiens, UniProt Q32MK0)", "remaining binding [%]": 100}
{"target": "Inhibitor of nuclear factor kappa-B kinase subunit beta (IKBKB, Homo sapiens, UniProt O14920)", "remaining binding [%]": 100}
{"target": "Protein kinase C iota type (PRKCI, Homo sapiens, UniProt P41743)", "remaining binding [%]": 100}
{"target": "Phosphatidylinositol 4,5-bisphosphate 3-kinase catalytic subunit alpha isoform (PIK3CA, Homo sapiens, UniProt P42336, I800L)", "remaining binding [%]": 75.4}
{"data": "Series 2", "target": "CCNB1, cyclin fold, Cln2 fusion (human)", "technique": "yeast growth competition, sequencing", "matrix": "yeast", "setting": "weak parent motif", "baseline": "not given", "reading": "higher = stronger binding", "starting sequence": "CENPC docking peptide (human); VKTKKRLNFDDKV"}
{"Change": "V13A", "normalised enrichment score": 0.417}
{"Change": "D10A", "normalised enrichment score": 0.429}
{"Change": "F9A", "normalised enrichment score": 0.388}
{"Change": "K2A", "normalised enrichment score": 0.904}
{"Change": "R6A", "normalised enrichment score": 0.255}
{"Change": "K5A", "normalised enrichment score": 0.751}
{"Change": "F9L", "normalised enrichment score": 0.273}
{"Change": "K12A", "normalised enrichment score": 1.09}
{"data": "Series 3", "target": "Calcium/calmodulin-dependent protein kinase type IV (CAMK4, Homo sapiens, UniProt Q16566)", "read-out": "enzyme activity", "action": "inhibitor", "tested at": "0.5 µM", "baseline": "control", "Target sequence (Q16566 1-473)": "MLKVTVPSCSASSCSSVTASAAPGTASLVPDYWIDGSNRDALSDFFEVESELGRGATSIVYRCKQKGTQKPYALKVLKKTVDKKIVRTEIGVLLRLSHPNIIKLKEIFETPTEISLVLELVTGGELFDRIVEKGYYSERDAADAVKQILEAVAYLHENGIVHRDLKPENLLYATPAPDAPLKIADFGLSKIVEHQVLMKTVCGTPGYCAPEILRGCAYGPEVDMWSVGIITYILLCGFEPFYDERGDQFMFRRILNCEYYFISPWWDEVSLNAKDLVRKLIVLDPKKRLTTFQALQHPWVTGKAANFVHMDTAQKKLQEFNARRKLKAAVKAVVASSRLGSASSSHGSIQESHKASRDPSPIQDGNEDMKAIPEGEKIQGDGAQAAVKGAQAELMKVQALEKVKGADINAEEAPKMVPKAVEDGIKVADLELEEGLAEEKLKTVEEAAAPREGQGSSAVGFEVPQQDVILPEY"}
{"Structure (SMILES)": "OCC(O)CCON=C1C(c2c(O)[nH]c3ccccc23)=Nc2ccccc21 (stereo not drawn)", "remaining activity [%]": 93.6}
{"Structure (SMILES)": "Cc1cccc(-c2[nH]c(C(C)(C)C)nc2-c2ccc3c(c2)OCO3)n1", "remaining activity [%]": 100}
{"Structure (SMILES)": "COc1cc2ncnc(Nc3ccc(F)c(Cl)c3)c2cc1OCCCN1CCOCC1", "remaining activity [%]": 93.3}
{"Structure (SMILES)": "COc1ccc(C(=O)Nc2sc3c(c2C(N)=O)CCCC3)cc1OC", "remaining activity [%]": 95.7}
{"Structure (SMILES)": "CCOC(=O)c1c(C)[nH]c(/C=C2\\C(=O)Nc3ccccc32)c1C", "remaining activity [%]": 97.7}
{"Structure (SMILES)": "COc1ccc(CNC(=O)Nc2ncc([N+](=O)[O-])s2)cc1", "remaining activity [%]": 96.7}
{"Structure (SMILES)": "Oc1ccc(-c2nc(-c3ccncc3)c(-c3ccc(F)cc3)[nH]2)cc1", "remaining activity [%]": 102}
{"Structure (SMILES)": "COc1cc2ncnc(Nc3ccc(Oc4ccccc4)cc3)c2cc1OC", "remaining activity [%]": 97.8}
{"Structure (SMILES)": "Cn1sc(=O)n(Cc2ccccc2)c1=O", "remaining activity [%]": 93.2}
{"Structure (SMILES)": "O=c1c2ccccc2[nH]c(=S)n1CCN1CCC(=C(c2ccc(F)cc2)c2ccc(F)cc2)CC1", "remaining activity [%]": 94.7}
{"Structure (SMILES)": "CNC(=O)c1cc(Oc2ccc(NC(=O)Nc3ccc(Cl)c(C(F)(F)F)c3)cc2)ccn1", "remaining activity [%]": 107}
{"Structure (SMILES)": "COc1ccc(OC)c2c(=S)c3ccccc3[nH]c12", "remaining activity [%]": 101}
{"Structure (SMILES)": "C#Cc1cccc(Nc2ncnc3cc(OCCOC)c(OCCOC)cc23)c1", "remaining activity [%]": 94.8}
{"Structure (SMILES)": "N#CC(C#N)=C(N)/C(C#N)=C/c1ccc(O)cc1", "remaining activity [%]": 97.2}
{"data": "Series 4", "target": "Sal-like protein 4, full length isoform B (SALL4, Homo sapiens, UniProt Q9UJQ4-2, residues 1-616)", "technique": "universal PBM", "form": "double-stranded DNA, one strand shown", "matrix": "in vitro", "tested at": "not given", "setting": "8-mer, flanks averaged, mean of replicates", "reading": "higher = stronger binding", "Target sequence (chain)": "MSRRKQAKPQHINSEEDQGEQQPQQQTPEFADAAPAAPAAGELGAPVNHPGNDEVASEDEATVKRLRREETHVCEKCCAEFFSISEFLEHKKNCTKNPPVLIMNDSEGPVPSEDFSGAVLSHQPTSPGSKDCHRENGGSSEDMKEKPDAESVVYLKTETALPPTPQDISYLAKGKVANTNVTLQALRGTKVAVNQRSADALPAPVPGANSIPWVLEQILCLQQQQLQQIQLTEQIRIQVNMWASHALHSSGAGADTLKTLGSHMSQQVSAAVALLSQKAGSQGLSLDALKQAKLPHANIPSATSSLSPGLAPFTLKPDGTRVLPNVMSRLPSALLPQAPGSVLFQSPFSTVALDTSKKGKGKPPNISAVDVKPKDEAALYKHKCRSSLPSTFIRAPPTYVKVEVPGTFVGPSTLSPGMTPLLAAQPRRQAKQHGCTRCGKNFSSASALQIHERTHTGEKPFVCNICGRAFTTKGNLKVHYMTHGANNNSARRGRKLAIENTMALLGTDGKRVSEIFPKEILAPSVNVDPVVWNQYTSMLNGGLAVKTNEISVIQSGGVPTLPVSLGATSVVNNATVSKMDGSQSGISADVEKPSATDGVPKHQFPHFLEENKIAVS"}
{"Sequence": "AAGGATAA", "E-score": 0.161}
{"Sequence": "GGTAGCTA", "E-score": 0.0158}
{"Sequence": "ATGTAGAG", "E-score": 0.128}
{"Sequence": "GCGTGAAC", "E-score": -0.135}
{"Sequence": "ATCAGCTG", "E-score": 0.0351}
{"Sequence": "GATGCCGC", "E-score": -0.367}
{"Sequence": "AGCGAGAT", "E-score": -0.0682}
{"Sequence": "ACCCTTCG", "E-score": -0.204}
